Assay results collected from several papers.
Each numbered part is a random draw from the data of one study; scales do not carry over between parts.

Study 1 — technique: protein binding microarray; molecule type: double-stranded DNA, one strand shown; medium: in vitro; concentration: not given; baseline: not given; reading: higher = stronger binding; endpoint: E-score
Target: Histone acetyltransferase KAT6A, winged helix 1, GST fusion (KAT6A, Homo sapiens, UniProt Q92794, residues 1-85)
Setting: 8-mer, flanks averaged, mean of 2 arrays, mostly near background
Target sequence (chain): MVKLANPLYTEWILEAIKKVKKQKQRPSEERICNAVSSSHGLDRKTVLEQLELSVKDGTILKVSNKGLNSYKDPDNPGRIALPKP
Strand = TAAGCAGA; value = -0.0931
Strand = AGGGGAAA; value = -0.153
Strand = GTATTCAC; value = -0.0902
Strand = GCACCCAC; value = 0.0302
Strand = ACGACGGG; value = 0.268

Study 2 — technique: RNA Bind-n-Seq; molecule type: RNA; medium: in vitro; concentration: 365 nM; baseline: no-protein control; reading: higher = stronger binding; endpoint: RBNS enrichment (R)
Target: RNA binding protein fox-1 homolog 2, RRM domain, GST-SBP tag (RBFOX2, Homo sapiens, UniProt O43251-10, residues 100-194)
Setting: natural RNA segment, single round, ends assumed
All sequences stand within: GGGAGUUCUACAGUCCGACGAUC … UGGAAUUCUCGGGUGCCAA
Construct (chain): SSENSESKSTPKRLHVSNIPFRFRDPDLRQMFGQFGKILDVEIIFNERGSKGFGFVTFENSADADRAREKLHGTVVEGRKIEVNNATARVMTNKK
Strand = UCGAUUGUGGUGUCUUGGCGACUAAUCAGUUUCAUUGUAUAACCAGCCAGAUCUUCACCUCUUCUUCCGUACGUGACCGCAAGUCCCUGGAACGAGGCAUCUGGAGCUUC; value = 0.276
Strand = UUUUAUUCCUAUUUAAUGUUAUUGACUAUAGCGGAUCUUUGAAAUCAGUGUUUUCCGUGUGAAUUUCCAACCUUGCACCCCGUUCCUUGUCCUUACUCUUGACUCCAUCC; value = 0.69
Strand = UGCCAUCACGCAUUUAAGACAGGAUUGGACUGUCAUCUCGCAUCAGAAACCGUUACAAUUUCCUGUUGCUGUACAGCCUCUUCUGAACUCUCUUCUCUCUUUGGUGUUCA; value = 0.852
Strand = UUGAGAUAGCAUACAGUAGAUGUUUAAGAAAUAGUAGGAAGUCCGGUGAGACGGCUGUUUCCAUCAAGAACUCCUAGCACUGCUGUAAAUAUCAUGGUGCCUACUGGAAG; value = 0.47
Strand = UGCCCCUCUCCUUCCUGGCUACUUAAGGUCAGGAAGGAAAAAGGGGACCUCUGUUUCUUCGGCUGUUGGAACCUUGAAAUGACCAGAAAGUAGGACAUGUGCAGUCCCAC; value = 0.455

Study 3 — technique: competition protein-binding microarray; molecule type: double-stranded DNA, one strand shown; medium: in vitro; concentration: 2 µM; together with: Cbf1 competitor, 0.05 µM; reading: higher = stronger binding; endpoint: fluorescence intensity; all sequences stand within: … GTCTTGATTCGCTTGACGCTGCTG
Target: Phosphate system positive regulatory protein PHO4, full length, GST-tagged (PHO4, Saccharomyces cerevisiae, UniProt P07270, residues 1-312)
Setting: whole 60-bp probe, lowest competitor level
Construct (chain): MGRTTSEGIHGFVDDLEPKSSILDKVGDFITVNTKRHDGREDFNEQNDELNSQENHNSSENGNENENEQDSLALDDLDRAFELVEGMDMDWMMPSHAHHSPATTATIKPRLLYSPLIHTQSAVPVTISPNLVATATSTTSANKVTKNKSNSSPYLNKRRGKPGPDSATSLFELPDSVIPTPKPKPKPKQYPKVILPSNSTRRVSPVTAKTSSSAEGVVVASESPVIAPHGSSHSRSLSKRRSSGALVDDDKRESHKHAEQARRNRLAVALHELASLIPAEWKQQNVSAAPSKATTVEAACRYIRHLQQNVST
Strand = CGCCTTAATCGCTCCGGCGTGGGTAAAGAAAGCAGA; value = 6300 a.u.
Strand = TGCATGGATATATTTGGCCCTGTATCAAGTTCAAAC; value = 3360 a.u.
Strand = GCTGCGGCGGAAAAAAACGTGACGGCTTTTAGCACA; value = 10700 a.u.
Strand = CGTCCTAGTGATTGTGCTGTGGGTGCCATGAGGAAG; value = 8260 a.u.
Strand = AAATTACTAAGTTGTCACAACACTTACCCCGTATGA; value = 4190 a.u.
Strand = GTTAAGCATAAAAAGCACGTGCTTTAGATGTTTTCA; value = 16800 a.u.
Strand = AAATTACTAAGTTGCTTAGTGGGTGACGCCGTATGA; value = 4070 a.u.

Other studies, line by line
Substance = PhoQ, residues 284 288 289 292 302 303 SCCLKL; target = PhoP, residues 12 14 15 18 19 SGWQI (Escherichia coli, UniProt P23836); test = Sort-seq, measured: YFP reporter; system = E. coli; conditions = PhoQ-PhoP variant library, together with: 10 µM Mg2+; how to read = baseline: high Mg2+ state, higher = stronger signaling; endpoint = fold induction; value = 9.11
